{"data": "Experimental data from different studies", "note": "Compare with care: the assays were run in different laboratories. Several values in a cell are separate wells, animals, samples, runs or records. ± marks the error that the study gave."}
{"Compound": "CCCC[C@H]1C(=O)N(C)[C@@H](CCCC)C(=O)N[C@@H](CCCNC(=O)CN2CCN(CC(=O)O)CCN(CC(=O)O)CCN(CC(=O)O)CC2)C(=O)N[C@H](C(=O)NCC(N)=O)CSCC(=O)N[C@@H](Cc2ccc(O)cc2)C(=O)N(C)[C@@H](C)C(=O)N[C@@H](CC(N)=O)C(=O)N2CCC[C@H]2C(=O)N[C@@H](Cc2c[nH]cn2)C(=O)N[C@@H](CC(C)C)C(=O)N(C)CC(=O)N[C@@H](Cc2c[nH]c3ccccc23)C(=O)N[C@@H](CO)C(=O)N[C@@H](Cc2c[nH]c3ccccc23)C(=O)N1C [gallium-68 labelled]", "system": "NOD/SCID mice, CHO-hPD-L1 xenograft, tumour over liver", "conditions": "iv, dose not given, 30 min", "how to read": "relative to: tumour over liver", "endpoint": "tissue-to-tissue ratio", "result": "1.12 ± 0.14"}
{"Compound": "O=C(O)/C=C\\c1ccc2occc2c1O[C@@H]1O[C@H](CO)[C@@H](O)[C@H](O)[C@H]1O", "test": "post-procedure stability", "system": "rat plasma", "conditions": "1000 ng/mL, 1 h, room temperature", "endpoint": "accuracy", "result": "84.8%"}
{"Compound": "NC1CCN(C(=O)Oc2ccc(C3CCCC4(C3)OOC3(O4)C4CC5CC(C4)CC3C5)cc2)CC1 (racemic)", "system": "male mouse, plasma", "conditions": "oral, 50 mg/kg, single dose", "endpoint": "Tmax", "result": "2 h"}
{"Compound": "CC[C@H](C)[C@@H]1NC(=O)[C@H](Cc2ccc(O)cc2)NC(=O)CCCSC[C@@H](C(=O)N(CC(=O)N[C@@H](CC(C)C)C(=O)NCC(N)=O)Cc2ccc(F)cc2)NC(=O)[C@H](CC(N)=O)NC(=O)[C@H](CCC(N)=O)NC1=O", "system": "human", "conditions": "intranasal, 50 µg repeated doses", "endpoint": "deaths", "result": "0%"}
{"Compound": "CC(=O)NCCCC[C@@H]1NC(=O)[C@H](Cc2c[nH]c3c(C)cccc23)NC(=O)[C@H]([C@@H](C)O)NC(=O)[C@H](CC(N)=O)NC(=O)[C@@H](NC(C)=O)C(C)(C)SSC(C)(C)[C@@H](C(=O)N[C@@H](Cc2ccc(OCCN)cc2)C(=O)N[C@@H](Cc2ccc3ccccc3c2)C(=O)NC2(C(=O)N[C@@H](CCC(=O)O)C(=O)N[C@@H](CC(N)=O)C(=O)N[C@@H](Cc3cccnc3)C(=O)N(C)CC(N)=O)CCOCC2)NC1=O", "test": "equilibrium dialysis", "system": "cynomolgus monkey, plasma", "conditions": "0.01 µM", "endpoint": "plasma protein binding", "result": "46.8 ± 1%"}
{"Compound": "N#[11C]c1ccc(-c2csc(NN=C3CCCC3)n2)cc1", "system": "C57BL/6 mice, male, bladder", "conditions": "intravenous, 3 MBq, 60 min", "endpoint": "radioactivity uptake", "result": "3.84 ± 0.6 %ID/g"}
{"Compound": "CN1Cc2cc(Cl)ccc2-n2c(nnc2C2CCN(c3cccc([18F])n3)CC2)C1", "system": "C57BL/6 mouse male, testis", "conditions": "intravenous, dose not given, 5 min, with: blocking agent 10 mg/kg", "endpoint": "tissue uptake", "result": "1.48 ± 0.67 %ID/g"}
{"Compound": "C[C@H](O)[C@@H](NC(=O)[C@H]1CCCN1C(=O)[C@@H](CCCCN)NC(=O)[C@@H](CO)NC(=O)[C@@H](Cc1ccc(O)cc1)NC(=O)[C@@H](CC(N)=O)NC(=O)CCOCCOCCOCCNC(=O)CN1CCN(CC(=O)O)CCN(CC(=O)O)CCN(CC(=O)O)CC1)C(=O)N[C@H](CC(=O)O)C(=O)N[C@H](CCCNC(=N)N)C(=O)N[C@H](CCC(N)=O)C(=O)N[C@H](Cc1ccc(O)cc1)C(=O)N[C@H](Cc1c[nH]cn1)C(=O)N[C@H](Cc1ccccc1)C(N)=O [copper-64 labelled]", "system": "C57BL/6J mice, muscle", "conditions": "intravenous, 1.85 MBq, 0.6667 h, radiolabelled", "endpoint": "tissue uptake", "result": "0.32 ± 0.02 %ID/g"}
{"Compound": "O=C1NC2(CC2)COc2ncc(F)cc2[C@H]2COCCN2c2ccn3ncc1c3n2", "system": "Sprague-Dawley rat, female", "conditions": "oral, 5 mg/kg/day, end of treatment, 4-week repeated-dose toxicity", "endpoint": "body weight", "result": "353 ± 22.6 g"}
{"Compound": "CC(C)[C@H](NC(=O)[C@@H](NC(=O)[C@H](CCCNC(=N)N)NC(=O)[C@H](CCCNC(=N)N)NC(=O)[C@H](CCCNC(=N)N)NC(=O)[C@H](CCC(N)=O)NC(=O)[C@H](CCCNC(=N)N)NC(=O)[C@H](CCCNC(=N)N)NC(=O)[C@H](CCCCN)NC(=O)[C@H](CCCCN)NC(=O)[C@H](CCCNC(=N)N)NC(=O)CN)[C@@H](C)O)C(=O)N[C@H](C(=O)N[C@@H](CO)C(=O)N1CCC[C@H]1C(=O)O)[C@@H](C)O", "system": "ICR mouse, male, right kidney", "conditions": "intranasal, 10 mg/kg daily, 4 weeks", "endpoint": "kidney weight", "result": "0.299 ± 0.027 g"}
{"Compound": "CC(C)(CCCC/C=C/CCCCCC(C)(C)C(=O)O)C(=O)O", "system": "ICR mice, both sexes", "conditions": "oral, dose not given, 7 h", "endpoint": "plasma concentration", "result": "6510 ng/mL"}
{"Compound": "CSCC[C@H](NC(=O)[C@@H](NC(=O)[C@H](CC(C)C)NC(=O)[C@@H](NC(=O)[C@H](Cc1c[nH]cn1)NC(=O)CCCCCNC(=O)[C@H](CCCNC(=N)N)NC(=O)[C@H](CCCNC(=N)N)NC(=O)[C@H](CCCNC(=N)N)NC(=O)[C@H](CCC(N)=O)NC(=O)[C@H](CCCNC(=N)N)NC(=O)[C@H](CCCNC(=N)N)NC(=O)[C@H](CCCCN)NC(=O)[C@H](CCCCN)NC(=O)[C@H](CCCNC(=N)N)NC(=O)CNC(=O)[C@@H](N)Cc1ccc(O)cc1)C(C)C)C(C)C)C(=O)N[C@@H](CS)C(=O)N[C@@H](C)C(=O)N[C@H](C(N)=O)[C@@H](C)O", "system": "C57BL/6J mice", "conditions": "Alzet osmotic pump, 3 mg/kg, 8 weeks", "endpoint": "GGT", "result": "0 U/L"}
{"Compound": "CC[C@H](C)[C@H](NC(=O)[C@H](CCCCN)NC(=O)CNC(=O)[C@H](CC(C)C)NC(=O)[C@H](Cc1ccccc1)NC(=O)[C@H](CCCCN)NC(=O)[C@H](CO)NC(=O)[C@H](Cc1ccccc1)NC(=O)[C@H](Cc1c[nH]c2ccccc12)NC(=O)[C@H](CCC(N)=O)NC(=O)[C@@H](NC(=O)[C@H](Cc1ccccc1)NC(=O)CCCCCNC(=O)CN1CCN(CC(=O)O)CCN(CC(=O)O)CCN(CC(=O)O)CC1)C(C)C)C(=O)N[C@@H](CCC(=O)O)C(=O)N1CCC[C@H]1C(=O)N[C@@H](CC(=O)O)C(=O)N[C@H](C(=O)N[C@@H](CO)C(=O)N[C@@H](CCC(N)=O)C(=O)N[C@H](C(=O)N[C@@H](CCC(N)=O)C(=O)N[C@@H](CC(=O)O)C(=O)N1CCC[C@H]1C(=O)N[C@@H](CC(N)=O)C(=O)N[C@@H](CC(=O)O)C(=O)N[C@@H](CCC(N)=O)C(=O)N[C@@H](Cc1ccc(O)cc1)C(=O)N[C@@H](CCC(=O)O)C(=O)N1CCC[C@H]1C(=O)N[C@@H](Cc1ccccc1)C(=O)O)C(C)C)C(C)C [copper-64 labelled]", "system": "C57BL/6 mice, heart", "conditions": "with: LPS 3 mg/kg intratracheal", "endpoint": "tissue uptake", "result": "1.66 ± 0.2 %ID/g"}
{"Compound": "CCCCCCCCCCCCCCCC(=O)N[C@@H](CCC(=O)NCCOCCOCCC(=O)NCCOCCOCCC(=O)NCCCC[C@H](NC(=O)[C@H](CC(=O)O)NC(=O)[C@H](CC(C)C)NC(=O)[C@H](Cc1ccc(O)cc1)NC(=O)[C@H](CCCCN)NC(=O)[C@H](CO)NC(=O)[C@H](Cc1ccc(O)cc1)NC(=O)[C@H](CC(=O)O)NC(=O)[C@H](CO)NC(=O)[C@@H](NC(=O)[C@H](Cc1ccccc1)NC(=O)[C@@H](NC(=O)CNC(=O)[C@H](CCC(N)=O)NC(=O)[C@@H](CO)NC(=O)[C@@H](N)Cc1c[nH]cn1)[C@@H](C)O)[C@@H](C)O)C(=O)N[C@@H](CCCNC(=N)N)C(=O)N[C@@H](CCCNC(=N)N)C(=O)N[C@@H](C)C(=O)N[C@@H](CCC(N)=O)C(=O)N[C@@H](CC(=O)O)C(=O)N[C@@H](Cc1ccccc1)C(=O)N[C@H](C(=O)N[C@@H](CCC(N)=O)C(=O)N[C@@H](Cc1c[nH]c2ccccc12)C(=O)N[C@@H](CC(C)C)C(=O)N[C@@H](CC(C)C)C(=O)N[C@@H](CC(N)=O)C(=O)N[C@H](C(=O)NCC(=O)NCC(=O)N1CCC[C@H]1C(=O)N[C@@H](CO)C(=O)N[C@@H](CO)C(=O)NCC(=O)N[C@@H](C)C(=O)N1CCC[C@H]1C(=O)N1CCC[C@H]1C(=O)N1CCC[C@H]1C(=O)N[C@@H](CO)C(N)=O)[C@@H](C)O)C(C)C)C(=O)O", "test": "measured: ALP", "system": "Sprague-Dawley rat, male", "conditions": "subcutaneous, 100 µg/kg once daily, 14 days", "endpoint": "serum enzyme activity", "result": "174 ± 95.5 U/L"}
{"Compound": "C=Cc1c(C)c2cc3nc(c(CC(=O)O)c4[nH]c(cc5nc(cc1[nH]2)C(C)=C5CC)c(C)c4C(=O)O)[C@@H](CCC(=O)NCCCC[C@H](NC(C)=O)C(=O)N[C@@H](Cc1ccccc1)C(=O)N[C@@H](Cc1ccccc1)C(=O)N[C@H](C(=O)N[C@@H](CC(C)C)C(=O)N[C@@H](CCCCN)C(=O)N[C@@H](CO)C(=O)NCC(=O)N[C@@H](CCC(N)=O)C(=O)N[C@@H](Cc1ccc(O)cc1)C(=O)N[C@@H](C)C(=O)N[C@@H](CO)C(=O)N[C@@H](Cc1ccc(O)cc1)C(=O)N[C@@H](Cc1c[nH]cn1)C(=O)N[C@@H](CS)C(=O)N[C@@H](Cc1c[nH]c2ccccc12)C(=O)N[C@@H](CS)C(=O)N[C@@H](Cc1c[nH]c2ccccc12)C(=O)N[C@@H](CCCNC(=N)N)C(=O)N[C@@H](CC(=O)O)C(=O)N1CCC[C@H]1C(=O)NCC(=O)N[C@@H](CCCNC(=N)N)C(=O)N[C@@H](CO)C(=O)NCC(=O)NCC(=O)N[C@@H](CO)C(=O)N[C@@H](CCCCN)C(N)=O)C(C)C)[C@@H]3C", "system": "mouse, 4T1 breast tumour, serum", "conditions": "concentration not given, 21 days after single dose", "endpoint": "TNF level", "result": "43.8 pg/mL and 37.9 pg/mL and 47 pg/mL"}
{"Compound": "CC(=O)N[C@@H](CCCNC(=N)N)C(=O)N[C@@H](CCCCN)C(=O)N[C@@H](CCC(=O)N=S(c1ccc(Cl)cc1)c1ccccc1O)C(=O)N[C@H](C(=O)N[C@@H](Cc1ccc(O)cc1)C(N)=O)C(C)C (some centres unmarked)", "test": "HPLC", "system": "95% FBS in PBS", "conditions": "0.5 mM, 3 h, pH 7.4, 37 °C", "endpoint": "hydrolysis", "result": "2%"}
{"Compound": "CC[C@H](C)[C@H](NC(=O)[C@H](Cc1c[nH]cn1)NC(=O)[C@H](CCCCN)NC(=O)[C@H](C)NC(=O)[C@H](C)NC(=O)[C@H](Cc1c[nH]cn1)NC(=O)[C@H](CCCNC(=N)N)NC(=O)CNC(=O)[C@H](Cc1c[nH]cn1)NC(=O)[C@H](CCCCN)NC(=O)[C@H](Cc1ccccc1)NC(=O)[C@@H](NC(=O)[C@H](CO)NC(=O)CNC(=O)[C@H](Cc1c[nH]c2ccccc12)NC(=O)CN)[C@@H](C)CC)C(=O)NCC(=O)N[C@@H](Cc1c[nH]cn1)C(=O)N[C@@H](C)C(=O)N[C@@H](C)C(=O)N[C@H](C(=O)N[C@@H](CC(N)=O)C(=O)N[C@@H](Cc1c[nH]cn1)C(=O)N[C@@H](Cc1ccc(O)cc1)C(=O)N[C@@H](CC(C)C)C(N)=O)C(C)C", "system": "zebrafish embryos 4 hpf, E3 medium", "conditions": "1 h", "endpoint": "acute toxic concentration", "result": "25 µM"}
{"note": "Some of these lines once more:"}
{"Compound": "CCCC[C@H]1C(=O)N(C)[C@@H](CCCC)C(=O)N[C@@H](CCCNC(=O)CN2CCN(CC(=O)O)CCN(CC(=O)O)CCN(CC(=O)O)CC2)C(=O)N[C@H](C(=O)NCC(N)=O)CSCC(=O)N[C@@H](Cc2ccc(O)cc2)C(=O)N(C)[C@@H](C)C(=O)N[C@@H](CC(N)=O)C(=O)N2CCC[C@H]2C(=O)N[C@@H](Cc2c[nH]cn2)C(=O)N[C@@H](CC(C)C)C(=O)N(C)CC(=O)N[C@@H](Cc2c[nH]c3ccccc23)C(=O)N[C@@H](CO)C(=O)N[C@@H](Cc2c[nH]c3ccccc23)C(=O)N1C [gallium-68 labelled]", "system": "NOD/SCID mice, CHO-hPD-L1 xenograft, tumour over liver", "conditions": "iv, dose not given, 30 min", "how to read": "relative to: tumour over liver", "endpoint": "tissue-to-tissue ratio", "result": "1.12 ± 0.14"}
{"Compound": "CC(C)(CCCC/C=C/CCCCCC(C)(C)C(=O)O)C(=O)O", "system": "ICR mice, both sexes", "conditions": "oral, dose not given, 7 h", "endpoint": "plasma concentration", "result": "6510 ng/mL"}
